Measurements collected from several papers.
Parts stem from different laboratories: compare values within a part only.

Series 1 — method: protein-binding microarray; form: double-stranded DNA, one strand shown; sample: in vitro; concentration: 940 nM top; notes: 60-bp whole probe; with: salmon DNA 0.4 mg/ml; baseline: random background probes; reading: higher = stronger binding; quantity: fitted relative affinity; shared flanks, not repeated: GCCTAGCAC … GTCTTGATTCGCTTGACGCTGCTG
Target: Interferon regulatory factor 5, full length, phosphomimetic (IRF5, Homo sapiens, UniProt Q13568-2, residues 1-514, S451D/S453D/S456D/S462D)
GACGGTCTCGGACTGGTGACGTGCTAG: 0.738 z-score
TTAGGTTTCCTTTTCCTCTAGTGCTAG: 2.37 z-score
GTCGATTTCAGTATCGAGACGTGCTAG: 4.49 z-score
GACGGCTTCCTTTTCCTGACGTGCTAG: 0.243 z-score
TCATCTCCATTTTTCTAACTGTGCTAG: 1.39 z-score
GACGGTCTCGGACTGCGGACGTGCTAG: 0.689 z-score
GACGGACTGGGTCTCGGGGCGTGCTAG: -0.436 z-score
TGTTATTAAAATTTCATGAAGTGCTAG: 0.356 z-score
GACGGTATCGGTTTGGGGACGTGCTAG: 8.4 z-score
TCACCTATCTCCTCACAGACTGTGCTA: 1.02 z-score
GACGTTCTCCTTCTCCTGACGTGCTAG: 0.663 z-score
AACGATGCAAGTGCCCTTCGGTGCTAG: -0.407 z-score
GACGGTCTCAGTATCGAGACGTGCTAG: 2.81 z-score
GACTATTCCAGTTTCGAGACGTGCTAG: 4.77 z-score
GACGGTATGCTACTGCTGACGTGCTAG: -0.489 z-score
GACGGACTGCTTCTTCTGACGTGCTAG: -0.179 z-score
TGGGTTGTAGGTTTTCTGAAGGTGCTA: 0.284 z-score
TCATTTCTCAGTTTATTACTGTGCTAG: 2.14 z-score
TTCGATATCAGTCTCGATTAGTGCTAG: 3.12 z-score
TTAGGTATCCTACTGCTTTTGTGCTAG: 0.153 z-score
AGATATTTAGAACTTCTCCACGTGCTA: 0.0433 z-score
TTTGGTCTCGGACTGGGTTAGTGCTAG: 2.57 z-score
GCCAAACACCCACATTCACCGTGCTAG: 1.23 z-score
GACGGTCTCCATCTCCTGACGTGCTAG: 0.432 z-score
GACGACCTCAGTCTCGAGACGTGCTAG: 1.11 z-score

Series 2 — method: aptamer microarray, sandwich; form: DNA with 2'F-ANA; sample: in vitro; concentration: 200 nM; with: Cy3 exosite-II aptamer, 400 nM; reading: higher = stronger binding; quantity: mean fluorescence intensity; sequence: GGTTGGTGTGGTTGG
Target: Prothrombin, mature alpha-thrombin (F2, Homo sapiens, UniProt P00734)
Notes: whole 15-mer aptamer, many near background
2'F-ANA at 2 3 7 12 13 14: 435 a.u.
2'F-ANA at 4 5 6 8 11 15: 72.3 a.u.
2'F-ANA at 1 4 5 7 9 10 12 13 15: 66.5 a.u.
2'F-ANA at 2 5 6 8 9 11 12 13 15: 87.4 a.u.
2'F-ANA at 1 3 4 5 9 12 14: 48.5 a.u.
2'F-ANA at 1 2 4 7 9 11 13: 104 a.u.
2'F-ANA at 5 6 7 8 10 13: 72.9 a.u.
2'F-ANA at 1 3 4 6 9 11: 176 a.u.
2'F-ANA at 4 6 12: 624 a.u.
2'F-ANA at 1 2 4 5 10 12 15: 51.2 a.u.
2'F-ANA at 3 4 9 11 12 15: 678 a.u.
2'F-ANA at 1 3 4 5 6 7 8 9 10 12: 76.3 a.u.
2'F-ANA at 2 3 6 9 10 11 12 13: 325 a.u.
2'F-ANA at 2 4 7 10 12 13 14 15: 71.9 a.u.
2'F-ANA at 1 2 3 4 5 8 10 12 15: 49 a.u.
2'F-ANA at 2 4 7 9 13 14: 140 a.u.
2'F-ANA at 4 6 11 14 15: 76.2 a.u.
2'F-ANA at 2 4 5 6 7 8 13 14 15: 48.1 a.u.
2'F-ANA at 1 2 3 4 8: 259 a.u.
2'F-ANA at 10 13 14: 150 a.u.
2'F-ANA at 1 2 3 4 5 6 7 8 9 12 13 14 15: 53.1 a.u.
2'F-ANA at 1 3 5 6 11 13 15: 59.3 a.u.
2'F-ANA at 2 3 7 9 10 14: 330 a.u.
2'F-ANA at 4 7 10 14 15: 59.3 a.u.
2'F-ANA at 1 2 6 7 9 10 14 15: 43.1 a.u.

Series 3 — method: RNA Bind-n-Seq; form: RNA; sample: in vitro; concentration: 1 µM; notes: whole 134-nt RNA, ends assumed; with: 150 mM KCl; baseline: input library; reading: higher = stronger binding; quantity: log2 enrichment
Target: Ras GTPase-activating protein-binding protein 1, C-terminal RGG region (G3BP1, Homo sapiens, UniProt Q13283)
UniProt Q13283, sequence (whole entry, looked up): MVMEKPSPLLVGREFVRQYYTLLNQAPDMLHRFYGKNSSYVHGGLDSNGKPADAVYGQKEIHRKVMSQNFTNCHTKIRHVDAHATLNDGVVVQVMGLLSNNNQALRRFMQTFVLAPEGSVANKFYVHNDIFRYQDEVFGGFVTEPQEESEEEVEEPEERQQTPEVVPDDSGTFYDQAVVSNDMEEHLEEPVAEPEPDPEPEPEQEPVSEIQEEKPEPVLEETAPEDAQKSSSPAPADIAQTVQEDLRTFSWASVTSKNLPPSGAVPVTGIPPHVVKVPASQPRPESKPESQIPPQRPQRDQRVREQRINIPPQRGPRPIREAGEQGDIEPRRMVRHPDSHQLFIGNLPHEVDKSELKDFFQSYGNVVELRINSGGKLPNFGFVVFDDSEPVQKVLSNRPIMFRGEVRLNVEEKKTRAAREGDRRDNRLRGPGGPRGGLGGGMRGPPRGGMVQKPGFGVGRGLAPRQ
Shared flanks, not repeated: GGGAGUUCUACAGUCCGACGAUC … UGGAAUUCUCGGGUGUCAAGG
UGGCCCUGGUGGCAUGCGGGGAGGAAGAGGUGGCCUCAUGGAUCGUGGUGGUCCCGGUUGAAUGUUCAGAGGUGGCCGUGGUGGAGACAG: 1.71
CUGUGCUACACAUCGUAUGUACCGAAUCGGGAAAAAAAGGGAAAAAAAGGGGAAAAAAAGGAAAGUAUUAUGUUACGCCGUUCGGAUCUG: -1.15
CUGUGCUACACAUCGUAUGUACCGAAUCGGAAAAAAAGGGGAAAAAAAGGGGAAAAAAAGGGAAAGUAUUAUGUUACGCCGUUCGGAUCU: -1.1
UGGCCCUGGUGGCAUGCGGGGAGGAAGAGGUGGCCUCAUGGAUCGUGGUGGUCCCGGUGGAAUGUUCAGAGGUGGCCGUGGCGGAGACAG: 3.17
CACAGACAACACGCACCCACACAGACACAGAGGGAAGGGGUUGGGAUGGGGACAGGGCGCACAGCAGGGCGGGGUAGGACCCCAGCCCCU: -0.262
AAGUCCUGUGCUACACAUCGUAUGUACCGAAUCGGGCCCGGGGCCCGGGGCCCGGGAAAGUAUUAUGUUACGCCGUUCGGAUCUGCACUU: -2.29
UGGGAGGUGGAUUUUGUUUAUUUUUUUAGCUCAUUACCAGGGGUGGGAAUUUUUUUUUAAUAUGUGUCAUGAAUAAAGUUGUUUUUGAAA: 3.6
CACAGACAACACGCACCCACACAGACACAGAGGGAAGGGGUUGGGAUGGGGACAGGGUGUACAGCAGGGCGGGGUAGGACCCCAGCCCCU: -0.653
UAACUUUAGAGGAGGAUCUGAUGGAUAUCGCAGUGGACGUGGAUUUGGGGAUGGCUAUAAUGGGUAUGGAGGAGGACCUGGAGGUGGCAA: -1.38
CCUGUGCUACACAUCGUAUGUACCGAAUCGGGAAAAAAGGGAAAAAAGGGGAAAAAAGGGAAAGUAUUAUGUUACGCCGUUCGGAUCUGC: -1.43
CACAGACAACACGCUCCCACACAGACACAGAGGGAAGGGGUUGGGAUGGGGACAGGGUGCACAGCAGGGCGGGGUAGGACCCCAGCCCCU: -0.15
UGGAGAAGGAACGUGAUAAAGAAGUAAGCGAUGAUGAGGCUGAAGAAAAGGAAGACAAAGAAGAAGAAAAAGAAAAAGAAGAGAAAGAGU: -0.676
UGGGAGGUGGAUUUUGUUUAUUUUUUUAGCUCAUUUGCAGGGGUGGGAAUUUUUUUUUAAUAUGUGUCAUGAAUAAAGUUGUUUUUGAAA: 3.52
GACAGACAACACGCACCCACACAGACACAGAGGGAAGGGGUUGGGAUGGGGACAGGGUGCACAGCAGGGCGGGGUAGGACCCCAGCCCCU: -0.224

Series 4 — method: RNA Bind-n-Seq; form: RNA; sample: in vitro; concentration: 365 nM; baseline: no-protein control; reading: higher = stronger binding; quantity: RBNS enrichment (R)
Target: RNA binding protein fox-1 homolog 2, RRM domain, GST-SBP tag (RBFOX2, Homo sapiens, UniProt O43251-10, residues 100-194)
Notes: natural RNA segment, single round, ends assumed
Shared flanks, not repeated: GGGAGUUCUACAGUCCGACGAUC … UGGAAUUCUCGGGUGCCAA
Construct (chain): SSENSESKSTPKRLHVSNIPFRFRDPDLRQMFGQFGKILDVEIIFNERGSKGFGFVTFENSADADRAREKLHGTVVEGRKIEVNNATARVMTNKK
CCUUGCCAUGGCAGCAAAGUACGACGACUACCACCACGAGCGCUGGCACAGGGUCCAUCCCGCCAUGGCAACAGCAGCAGGCGGCUGCCGCAGCUUCUCCAGGAACCCCU: 0.335
CUGGAAGAUGCACUUGCCCCGACAGCUGGGCAGCACGGCUGUCCUCUGCAGAGACUGCCUGGUCCUCAUUGUACUUUGGUGGCUCAACUGAAUAAAGCCUUGUGGGAAGC: 0.979
UAUGGUUUACUCACUUAGGGAAAGGGCUUAGGUGUUAGGCUGUGGGCUGCUUCUCCCUAACCAUCCAUUGUGCAGACUUCUCAUCUAAAAAGGUUGGUGGCUUUUGCUUG: 0.541
AAGUCUGUGAGGGUGAAUGCUAAAGGCUGGGAAGGGAGUGGGCUAGCCAGCUCAUGGAACGUAGGCCGCAUACGCACAUCUUACCAGUAACCAGUGUGGUUGCCAGAGUG: 0.26
AUGAGAUCACAUACUUUUUAAAUCCAAAUACAAAAGCAUAGUCUCUGCAAGAUUUUGUUCUUUGAAUUUCUUGAUAUUGUAAUUGAUUAUUGAUAACUGUCAUCAUGAAA: 0.448
CUGUAGGAGGUCCUCCAGCCCGGGUGCGUGGGUGCACAGGUGCGUGGGUGUGUGGAACGGGUCUGCUCUGCCUGCUUCUGUCUCUGUCUGGGUGUUUGAGUUCCAAAAAG: 1.03
UUCUAAUGAUGCAACAUAGCACAGAAUUACUGUGAUCAGUUUCUCAUCCAUACUGGGAAUUGUCUUGUUUUGAUACUGUGUUUUUCUGUGUUGCUUAAACUUCAAGAAUU: 0.784
GAAUUUAAAAAAUAUGUAACUGCUGUUUAUACAUUGGCUCCUUACUGCUUAUUAAUCUGUAUUGUACACAUGAUGAAAUGAAGCAGAAGCUGGGAGUCGGCCUUUCCUCU: 0.302
GACUGACCCCUCAGGCCCCUAGGCUGGGGGGUUGUAAAUAACAGCAGUCAGGUUGUUUACCAGCCCUUUGCACCUCCCCAGGCAGAGGGAGCCUCUGUUCUGGUGGGGGC: 0.444
UUUCGGGGGUCGGGGGAGGGCUCUUCAGAUGCCUCCAUAGGACCAAGUCCCCAUCAUUGCCGGGAGUGUGGAUUCUAGCAGCAGAGCUGGAAACGAUGAGAUUCCACAGA: 0.578
CAUUUCUUUUAUUGUUUUAUGUGCCAAACCACGAAGUGCAUUGGGCUUCAAUCUCUGAACACUGUAGACCCAUUAGAAGACUGUUCCGAUUGUUACAAAUUGUAGUGCCU: 0.386
UGGUUCCUCAGGGAAGAAUCUCACUUGACUAGAGAGGAGGUGGGAACAGAAGAGAGAAGGAGGCAGGGAGAUGUAUUUCUUAGGGCUCACCCCUUCACAGACUGACAGAA: 0.666
